Measured values collected from several papers.
Numbered parts are unrelated; each lists some results of a single study.
Sequence of UniProt Q9Y243 (whole entry, looked up): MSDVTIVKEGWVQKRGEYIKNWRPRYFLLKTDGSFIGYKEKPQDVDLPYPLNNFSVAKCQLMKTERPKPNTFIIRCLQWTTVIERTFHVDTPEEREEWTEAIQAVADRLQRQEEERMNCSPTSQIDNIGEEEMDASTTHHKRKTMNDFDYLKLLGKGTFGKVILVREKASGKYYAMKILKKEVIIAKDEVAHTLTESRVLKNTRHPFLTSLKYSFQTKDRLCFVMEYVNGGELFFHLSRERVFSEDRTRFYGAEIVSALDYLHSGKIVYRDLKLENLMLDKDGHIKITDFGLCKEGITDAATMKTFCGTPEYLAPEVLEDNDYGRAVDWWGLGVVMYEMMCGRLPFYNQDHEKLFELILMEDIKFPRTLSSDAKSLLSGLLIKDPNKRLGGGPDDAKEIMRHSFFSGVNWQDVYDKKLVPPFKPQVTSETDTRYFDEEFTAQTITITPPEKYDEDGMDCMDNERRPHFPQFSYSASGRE
Sequence of UniProt Q9NWZ3 (whole entry, looked up): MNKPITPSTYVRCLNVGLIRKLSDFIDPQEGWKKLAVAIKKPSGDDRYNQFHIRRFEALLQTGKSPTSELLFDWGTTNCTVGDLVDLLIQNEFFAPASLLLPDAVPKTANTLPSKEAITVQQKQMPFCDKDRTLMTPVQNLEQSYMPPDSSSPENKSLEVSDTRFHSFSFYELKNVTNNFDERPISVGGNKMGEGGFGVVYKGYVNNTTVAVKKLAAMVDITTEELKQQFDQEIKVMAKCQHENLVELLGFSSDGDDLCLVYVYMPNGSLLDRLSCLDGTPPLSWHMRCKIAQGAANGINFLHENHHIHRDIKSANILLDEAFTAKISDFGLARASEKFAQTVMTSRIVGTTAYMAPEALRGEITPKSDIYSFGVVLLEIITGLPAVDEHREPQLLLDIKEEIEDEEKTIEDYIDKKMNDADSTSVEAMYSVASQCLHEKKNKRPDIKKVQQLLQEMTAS
Sequence of UniProt P53778 (whole entry, looked up): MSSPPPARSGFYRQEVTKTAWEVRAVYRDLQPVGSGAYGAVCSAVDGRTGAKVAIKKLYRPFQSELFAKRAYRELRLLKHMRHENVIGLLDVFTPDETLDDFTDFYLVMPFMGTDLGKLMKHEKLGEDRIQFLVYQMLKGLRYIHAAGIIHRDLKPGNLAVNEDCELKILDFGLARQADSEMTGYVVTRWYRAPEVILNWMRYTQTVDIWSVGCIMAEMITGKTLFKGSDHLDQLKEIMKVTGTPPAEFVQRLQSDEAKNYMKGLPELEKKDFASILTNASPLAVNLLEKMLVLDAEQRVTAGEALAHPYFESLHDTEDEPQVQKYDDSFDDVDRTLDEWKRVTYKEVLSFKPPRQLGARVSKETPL
Sequence of UniProt Q6PHR2 (whole entry, looked up): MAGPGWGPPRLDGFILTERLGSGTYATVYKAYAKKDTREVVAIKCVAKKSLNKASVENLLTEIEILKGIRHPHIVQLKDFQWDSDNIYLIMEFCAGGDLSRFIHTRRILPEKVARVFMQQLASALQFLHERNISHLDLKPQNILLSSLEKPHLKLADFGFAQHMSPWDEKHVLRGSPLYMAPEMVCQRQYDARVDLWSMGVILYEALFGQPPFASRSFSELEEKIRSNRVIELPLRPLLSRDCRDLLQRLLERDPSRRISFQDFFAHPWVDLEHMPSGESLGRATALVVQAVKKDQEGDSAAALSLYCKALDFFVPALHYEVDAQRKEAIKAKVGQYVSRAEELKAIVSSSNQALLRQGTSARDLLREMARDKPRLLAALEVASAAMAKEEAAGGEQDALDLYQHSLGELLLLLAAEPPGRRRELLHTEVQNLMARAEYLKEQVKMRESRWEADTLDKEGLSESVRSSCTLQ
Sequence of UniProt P51957 (whole entry, looked up): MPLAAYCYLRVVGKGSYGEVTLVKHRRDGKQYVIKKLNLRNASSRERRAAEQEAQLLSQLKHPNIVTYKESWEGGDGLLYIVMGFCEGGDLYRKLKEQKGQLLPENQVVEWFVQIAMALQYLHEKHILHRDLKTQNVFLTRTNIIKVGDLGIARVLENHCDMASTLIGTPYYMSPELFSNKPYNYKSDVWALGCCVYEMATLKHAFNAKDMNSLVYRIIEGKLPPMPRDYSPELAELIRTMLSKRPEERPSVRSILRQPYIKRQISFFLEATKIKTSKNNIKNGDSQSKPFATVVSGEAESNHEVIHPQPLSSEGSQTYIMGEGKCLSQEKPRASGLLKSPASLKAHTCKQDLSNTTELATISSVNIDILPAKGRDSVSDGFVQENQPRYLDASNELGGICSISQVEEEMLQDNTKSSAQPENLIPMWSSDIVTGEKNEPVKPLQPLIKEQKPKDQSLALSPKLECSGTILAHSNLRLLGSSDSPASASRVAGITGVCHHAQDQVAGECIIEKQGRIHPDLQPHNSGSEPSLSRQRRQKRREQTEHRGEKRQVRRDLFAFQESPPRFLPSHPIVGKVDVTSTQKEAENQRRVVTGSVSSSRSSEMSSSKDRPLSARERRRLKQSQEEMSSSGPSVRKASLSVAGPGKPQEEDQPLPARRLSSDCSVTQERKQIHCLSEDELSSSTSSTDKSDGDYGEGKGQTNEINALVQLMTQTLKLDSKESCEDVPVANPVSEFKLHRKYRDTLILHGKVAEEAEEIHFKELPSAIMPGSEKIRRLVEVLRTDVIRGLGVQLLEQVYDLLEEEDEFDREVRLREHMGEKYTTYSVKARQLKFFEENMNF
Sequence of UniProt P52564 (whole entry, looked up): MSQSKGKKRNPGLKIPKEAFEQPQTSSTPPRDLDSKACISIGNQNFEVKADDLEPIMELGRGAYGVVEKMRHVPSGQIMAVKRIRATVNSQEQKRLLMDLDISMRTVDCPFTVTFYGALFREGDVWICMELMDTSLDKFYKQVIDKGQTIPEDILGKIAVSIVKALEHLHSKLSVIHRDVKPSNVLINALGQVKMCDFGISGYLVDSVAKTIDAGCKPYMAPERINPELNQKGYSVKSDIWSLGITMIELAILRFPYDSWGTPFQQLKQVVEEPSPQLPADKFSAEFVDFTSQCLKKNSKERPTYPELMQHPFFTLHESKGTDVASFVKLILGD
Sequence of UniProt P23458 (whole entry, looked up): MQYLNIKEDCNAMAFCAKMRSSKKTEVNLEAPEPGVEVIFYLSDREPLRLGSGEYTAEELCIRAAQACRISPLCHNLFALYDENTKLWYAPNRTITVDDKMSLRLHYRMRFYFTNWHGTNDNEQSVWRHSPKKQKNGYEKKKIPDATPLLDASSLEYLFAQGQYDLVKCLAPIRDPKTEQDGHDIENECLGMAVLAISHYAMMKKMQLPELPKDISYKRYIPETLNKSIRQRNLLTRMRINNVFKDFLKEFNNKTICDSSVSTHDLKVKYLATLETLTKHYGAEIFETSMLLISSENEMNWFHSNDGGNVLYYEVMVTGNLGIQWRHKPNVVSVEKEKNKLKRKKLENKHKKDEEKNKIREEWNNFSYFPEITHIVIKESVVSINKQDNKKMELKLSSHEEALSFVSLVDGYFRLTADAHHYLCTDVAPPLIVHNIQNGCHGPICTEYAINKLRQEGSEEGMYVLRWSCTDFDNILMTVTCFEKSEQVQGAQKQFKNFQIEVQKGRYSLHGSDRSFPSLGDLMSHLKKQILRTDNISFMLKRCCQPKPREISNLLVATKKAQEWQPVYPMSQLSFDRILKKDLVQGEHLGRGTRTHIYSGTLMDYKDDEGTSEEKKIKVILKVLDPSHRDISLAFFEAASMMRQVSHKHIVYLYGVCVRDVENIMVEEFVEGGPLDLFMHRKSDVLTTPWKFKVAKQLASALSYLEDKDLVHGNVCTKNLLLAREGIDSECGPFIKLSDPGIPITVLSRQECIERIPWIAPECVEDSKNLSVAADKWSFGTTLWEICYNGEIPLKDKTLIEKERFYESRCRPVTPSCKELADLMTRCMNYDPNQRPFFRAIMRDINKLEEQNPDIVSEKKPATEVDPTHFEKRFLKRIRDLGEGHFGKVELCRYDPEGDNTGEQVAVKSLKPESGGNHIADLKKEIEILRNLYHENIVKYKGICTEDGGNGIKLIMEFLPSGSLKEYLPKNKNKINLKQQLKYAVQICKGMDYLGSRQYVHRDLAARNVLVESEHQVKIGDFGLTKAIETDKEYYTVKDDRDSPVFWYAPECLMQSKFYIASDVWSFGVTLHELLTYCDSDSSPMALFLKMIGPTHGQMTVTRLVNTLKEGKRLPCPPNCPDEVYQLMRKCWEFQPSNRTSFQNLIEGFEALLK
Sequence of UniProt Q9BZL6 (whole entry, looked up): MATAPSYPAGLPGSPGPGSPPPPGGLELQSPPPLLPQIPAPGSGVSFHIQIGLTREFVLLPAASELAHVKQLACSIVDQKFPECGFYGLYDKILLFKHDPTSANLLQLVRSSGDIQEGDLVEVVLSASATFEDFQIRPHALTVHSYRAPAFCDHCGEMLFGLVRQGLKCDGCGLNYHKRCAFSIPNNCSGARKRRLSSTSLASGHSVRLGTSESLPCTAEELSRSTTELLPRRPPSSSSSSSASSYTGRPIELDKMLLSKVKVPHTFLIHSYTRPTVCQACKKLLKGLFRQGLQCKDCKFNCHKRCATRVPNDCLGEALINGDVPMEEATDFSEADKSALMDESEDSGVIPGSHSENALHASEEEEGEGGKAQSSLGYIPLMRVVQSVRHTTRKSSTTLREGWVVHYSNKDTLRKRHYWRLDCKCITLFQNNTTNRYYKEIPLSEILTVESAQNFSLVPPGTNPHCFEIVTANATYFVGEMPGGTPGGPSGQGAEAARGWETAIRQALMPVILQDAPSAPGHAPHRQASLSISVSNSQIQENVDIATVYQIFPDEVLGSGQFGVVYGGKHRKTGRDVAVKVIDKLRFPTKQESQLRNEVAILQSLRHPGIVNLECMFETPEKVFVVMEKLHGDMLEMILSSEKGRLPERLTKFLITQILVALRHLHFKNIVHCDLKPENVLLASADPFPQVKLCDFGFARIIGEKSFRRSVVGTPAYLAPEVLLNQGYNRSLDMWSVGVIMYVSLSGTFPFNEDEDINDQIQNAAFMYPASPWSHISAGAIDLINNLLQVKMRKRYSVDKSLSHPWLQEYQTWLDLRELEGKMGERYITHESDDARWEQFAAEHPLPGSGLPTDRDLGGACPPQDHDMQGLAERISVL

Series 1
Organism: Sarcocystis neurona
Effect on: parasite growth
Concentration: 10 µM
Time: 96 h
Notes: first screen
Endpoint: inhibition
SMILES = CO[C@H]1/C=C/O[C@@]2(C)Oc3c(C)c(O)c4c(O)c(c(/C=N/N5CCN(C6CCCC6)CC5)c(O)c4c3C2=O)NC(=O)/C(C)=C\C=C\[C@H](C)[C@H](O)[C@@H](C)[C@@H](O)[C@@H](C)[C@H](OC(C)=O)[C@@H]1C; result = 21%
SMILES = NS(=O)(=O)c1cc2c(cc1Cl)N=CNS2(=O)=O; result = 2.4%
SMILES = CCOC(=O)C1=C(COCCN)NC(C)=C(C(=O)OC)C1c1ccccc1Cl (centres unmarked); result = -2.3%
SMILES = Cc1ccc(NC(=O)c2ccc(CN3CCN(C)CC3)cc2)cc1Nc1nccc(-c2cccnc2)n1; result = 15%
SMILES = CC12CC3CC(C)(C1)CC(N)(C3)C2; result = -17.3%
SMILES = Cc1cc2c(s1)Nc1ccccc1N=C2N1CCN(C)CC1; result = 8.5%

Series 2
Compound: O=C(O)c1cc(-c2ccc(C3CCNCC3)cc2)c2ccc(-c3ccc(C(F)(F)F)cc3)cc2c1
Technique: competition with immobilised ligand
Concentration: 1 µM
Endpoint: remaining binding
target = IRAK4 (Homo sapiens, UniProt Q9NWZ3); effect on = cell-free assay; result = 100%
target = TSSK1B (Homo sapiens, UniProt Q9BXA7); effect on = cell-free assay; result = 100%
target = SIK3 (Homo sapiens, UniProt Q9Y2K2); effect on = cell-free assay; result = 100%
target = Tyrosine-protein kinase ABL1, phosphorylated (ABL1, Homo sapiens, UniProt P00519, E255K); effect on = binding; result = 87%
target = TLK1 (Homo sapiens, UniProt Q9UKI8); effect on = cell-free assay; result = 100%
target = MAPK12 (Homo sapiens, UniProt P53778); effect on = cell-free assay; result = 99%
target = NTRK1 (Homo sapiens, UniProt P04629); effect on = cell-free assay; result = 100%
target = GRK3 (Homo sapiens, UniProt P35626); effect on = cell-free assay; result = 68%
target = PHKG1 (Homo sapiens, UniProt Q16816); effect on = cell-free assay; result = 100%
target = CSK (Homo sapiens, UniProt P41240); effect on = cell-free assay; result = 100%
target = Non-receptor tyrosine-protein kinase TYK2, JH2 (TYK2, Homo sapiens, UniProt P29597); effect on = cell-free assay; result = 100%
target = STK26 (Homo sapiens, UniProt Q9P289); effect on = cell-free assay; result = 100%
target = MAPK10 (Homo sapiens, UniProt P53779); effect on = cell-free assay; result = 100%
target = ERBB2 (Homo sapiens, UniProt P04626); effect on = cell-free assay; result = 100%
target = ULK3 (Homo sapiens, UniProt Q6PHR2); effect on = cell-free assay; result = 100%
target = ROS1 (Homo sapiens, UniProt P08922); effect on = cell-free assay; result = 100%
target = PRKD2 (Homo sapiens, UniProt Q9BZL6); effect on = cell-free assay; result = 100%
target = GRK4 (Homo sapiens, UniProt P32298); effect on = cell-free assay; result = 72%
target = PAK6 (Homo sapiens, UniProt Q9NQU5); effect on = cell-free assay; result = 100%
target = PIM3 (Homo sapiens, UniProt Q86V86); effect on = cell-free assay; result = 100%
target = AKT3 (Homo sapiens, UniProt Q9Y243); effect on = cell-free assay; result = 100%
target = RET (Homo sapiens, UniProt P07949); effect on = cell-free assay; result = 90%
target = RIOK2 (Homo sapiens, UniProt Q9BVS4); effect on = cell-free assay; result = 100%
target = PIK3CG (Homo sapiens, UniProt P48736); effect on = cell-free assay; result = 92%
target = Tyrosine-protein kinase JAK1, JH1 (JAK1, Homo sapiens, UniProt P23458); effect on = cell-free assay; result = 100%

Series 3
SMILES: Cc1cncc2cccc(S(=O)(=O)N3CCCN(C(=O)CN)C[C@@H]3C)c12
Effect on: enzyme activity
Action: inhibitor
Concentration: 0.5 µM
Reference: control
Endpoint: remaining activity
target = PRKCD (Homo sapiens, UniProt Q05655); result = 22.4%
target = WNK2 (Homo sapiens, UniProt Q9Y3S1); result = 98%
target = CHEK1 (Homo sapiens, UniProt O14757); result = 100%
target = EPHA5 (Homo sapiens, UniProt P54756); result = 95.1%
target = MAP2K6 (Homo sapiens, UniProt P52564); result = 107%
target = MAPK12 (Homo sapiens, UniProt P53778); result = 107%
target = MAPK13 (Homo sapiens, UniProt O15264); result = 119%
target = STK38 (Homo sapiens, UniProt Q15208); result = 97.1%
target = CSNK1A1 (Homo sapiens, UniProt P48729); result = 98.9%
target = MAP4K2 (Homo sapiens, UniProt Q12851); result = 106%
target = NEK4 (Homo sapiens, UniProt P51957); result = 95.3%
target = LRRK2 (Homo sapiens, UniProt Q5S007); result = 54.6%
target = PLK2 (Homo sapiens, UniProt Q9NYY3); result = 101%
target = PRKG1 (Homo sapiens, UniProt Q13976); result = 78.7%
target = MKNK2 (Homo sapiens, UniProt Q9HBH9); result = 83.8%
target = KIT (Homo sapiens, UniProt P10721); result = 92.9%
target = LYN (Homo sapiens, UniProt P07948); result = 101%
target = AKT3 (Homo sapiens, UniProt Q9Y243); result = 98.8%
target = Cyclin-dependent kinase 9, with cyclin T1 (CDK9, Homo sapiens, UniProt P50750); result = 86.7%
target = MAP3K10 (Homo sapiens, UniProt Q02779); result = 105%
target = IRAK4 (Homo sapiens, UniProt Q9NWZ3); result = 109%

Series 4
SMILES: CC(C)n1cnc(-c2ccc(F)cc2)c1-c1ncc(C(=O)Nc2ccc(N3CCN(C)CC3)cc2)[nH]1
Technique: phase 2a trial
Endpoint: patients with TEAE
species = patients with idiopathic pulmonary fibrosis; dose = 60 mg once daily; notes = nervous system disorders SOC, grade 2; result = 0%
species = patients with idiopathic pulmonary fibrosis; dose = dose not given; notes = endocrine disorders SOC, grade 2, all arms; result = 0%
species = patients with idiopathic pulmonary fibrosis; dose = 30 mg once daily; notes = skin papilloma, maximum intensity grade 3; result = 0%
species = patients with idiopathic pulmonary fibrosis; dose = 60 mg once daily; notes = nervous system disorders SOC, grade 5; result = 0%
species = idiopathic pulmonary fibrosis patients; route = oral; dose = 60 mg once daily; notes = blood/lymphatic disorders, grade 2; result = 0%
species = idiopathic pulmonary fibrosis patients; route = oral; dose = 30 mg once daily; notes = musculoskeletal disorders, grade 2; result = 1%
species = idiopathic pulmonary fibrosis patients; route = oral; dose = 30 mg once daily; notes = CK-MB increased, grade 4; result = 0%
